# Assay results of several laboratories.
# Compare with care: the assays were run in different laboratories. ± gives the spread as reported.
SMILES,organism,assay,test system,setting,how to read,quantity,result
CC[C@H](C)[C@H](NC(=O)[C@H](CO)NC(=O)[C@H](CO)NC(=O)[C@H](Cc1ccccc1)NC(=O)CN)C(=O)N[C@@H](Cc1ccccc1)C(=O)N[C@@H](CCCNC(=N)N)C(=O)NCC(=O)N[C@H](C(=O)N[C@@H](C)C(=O)N[C@@H](CCCCN)C(N)=O)C(C)C,Escherichia coli,,ATCC 8739,together with: 6 µM NH4Cl,,MBC,> 128 µM
COc1ccc(Br)cc1/C=N/NC(=O)Cn1ccc(=O)c2ccccc21,Sclerotinia sclerotiorum,microbial growth,,50 µg/mL,,inhibition,12.2%
OC[C@H]1O[C@@H]([Se]Cc2ccc(C[Se][C@@H]3O[C@H](CO)[C@H](O)[C@H](O)[C@H]3O)c3ccccc23)[C@H](O)[C@@H](O)[C@H]1O,Trypanosoma brucei,"parasite growth, flow cytometry",,"5 µM, 24 h",,viability,94.5%
O=C(Cn1ccc(=O)c2ccccc21)N/N=C/c1cc(Br)c(O)c(Br)c1,Tobacco mosaic virus,"viral infectivity, in vivo plant",,500 µg/mL,,inactivation activity,23.8 ± 2.5%
CC[C@H](C)[C@H](NC(=O)[C@H](CC(C)C)NC(=O)[C@H](Cc1c[nH]cn1)NC(=O)[C@H](Cc1c[nH]cn1)NC(=O)[C@@H](NC(=O)[C@H](Cc1ccccc1)NC(=O)[C@H](CC(N)=O)NC(=O)[C@H](Cc1c[nH]c2ccccc12)NC(=O)[C@@H](NC(=O)[C@H](Cc1c[nH]cn1)NC(=O)[C@H](Cc1c[nH]cn1)NC(=O)[C@H](Cc1c[nH]c2ccccc12)NC(=O)[C@@H](N)CC(C)C)[C@@H](C)CC)C(C)C)C(N)=O,Herpes simplex virus 1,"virus inactivation, plaque reduction","Vero, F",37 °C,,IC50,0.87 µg/mL
CC[C@@H](C)[C@@H](NC(=O)[C@@H](C)NC(=O)[C@@H](CCCCN)NC(=O)[C@@H](CC(C)C)NC(=O)[C@@H](C)NC(=O)[C@H](NC(=O)[C@@H](Cc1c[nH]cn1)NC(=O)[C@@H](CC(C)C)NC(=O)[C@H](NC(=O)[C@H](NC(=O)[C@@H](CCCCN)NC(=O)[C@@H](CCCCN)NC(=O)[C@@H](C)NC(=O)[C@@H](CO)NC(=O)[C@@H](CCCCN)NC(=O)[C@@H](Cc1ccccc1)NC(=O)[C@H](NC(=O)[C@@H](CCCCN)NC(=O)[C@@H](CC(C)C)NC(=O)[C@@H](Cc1ccccc1)NC(=O)[C@@H](CO)NC(=O)[C@@H](CCCCN)NC(=O)[C@@H](Cc1c[nH]c2ccccc12)NC(=O)[C@@H](CCCCN)NC(C)=O)[C@H](C)O)[C@H](C)O)C(C)C)[C@H](C)O)C(=O)N[C@H](CO)C(=O)N[C@H](CO)C(N)=O,Acinetobacter baumannii,,11 isolates,,,MIC geometric mean,1.1 µM
O=C1C=C(N(Cc2ccc(Cl)nc2)CC(F)F)CO1,Bemisia tabaci,"leaf-dip assay, adults",Q biotype,72 h,reference: LC50 resistant over susceptible strain,resistance ratio,7
Nc1ccn(C[C@@H](CO)OCP(=O)(O)OCCCS(=O)(=O)CCCCCCCCCCCCC2CCC2)c(=O)n1,human betaherpesvirus 5,cytopathic effect,AD169,,reference: CC50 over EC50,selectivity index,> 19
O=[N+]([O-])c1ccc(/C=N/N=C/c2ccc(Br)cc2)o1,Trypanosoma congolense,,"IL3000, mouse","intraperitoneal, 10 mg/kg daily for 7 days, from day 4 post-infection",,day of death,10 days post-infection
COc1ccc(/C=C/c2cc(O)cc(O[C@@H]3O[C@H](CO)[C@@H](O)[C@H](O)[C@H]3O)c2)cc1O,Streptococcus mutans,microbial growth,,,,MIC50,134 µM
CC(=O)CCC1C(=O)NC(C(C)C)C(=O)NC(Cc2cccc(O)c2)C(=O)N2CCCC(N2)C(=O)OC(C(C)=CC=CC(=O)N2CCCCO2)CC=CC=CC(O)C(C)C1O (centres unmarked),hepatitis B virus,"viral replication, refers to: HBV DNA",HBV stable cell line,,,IC50,610 nM
Cc1cn(C2CC(N(C)C)C(CO)O2)c(=O)[nH]c1=O (centres unmarked),HIV-2,"viral cytopathic effect, MTT","MT-4, ROD",,,EC50,> 460 nM
C[C@@H]1C[C@H](Nc2ccccc2)c2cc(F)ccc2N1C(=O)c1ccc(Cl)c(Cl)c1,Aedes albopictus,,second-instar larvae,72 h,,LC50,525 nM
CC[C@H](C)[C@H](NC(=O)[C@@H](NC(=O)CN)C(C)C)C(=O)N[C@@H](Cc1ccccc1)C(=O)N[C@@H](CC(N)=O)C(=O)N[C@@H](C)C(=O)N[C@@H](CC(C)C)C(=O)N[C@@H](CCCCN)C(=O)NCC(=O)N[C@H](C(=O)N[C@@H](C)C(=O)N[C@@H](CCCCN)C(=O)N[C@H](C(=O)N[C@H](C(=O)N[C@@H](C)C(=O)N[C@@H](C)C(=O)N[C@@H](CCC(N)=O)C(=O)N[C@@H](CC(C)C)C(=O)N[C@@H](CC(C)C)C(=O)N[C@@H](CCCCN)C(=O)N[C@@H](CCCCN)C(=O)N[C@@H](C)C(=O)N[C@@H](CCCNC(=N)N)C(=O)N[C@H]1CSSC[C@@H](C(=O)O)NC(=O)[C@H](CO)NC(=O)[C@H](CCCCN)NC(=O)[C@H](CC(=O)O)NC(=O)[C@H](CC(C)C)NC(=O)[C@H](CCCCN)NC1=O)C(C)C)[C@@H](C)O)C(C)C,Staphylococcus aureus,persister cells in biofilm,MRSA ATCC BAA-1707,together with: vancomycin 4 µg/mL,,MBEC,> 512 µM
NNC(=O)/C=C/c1ccc(N)cc1,Aedes aegypti,larvicidal activity,third instar larvae,72 h,,LC90,208 ppm
C[C@@H]1C[C@H](Nc2ccccc2)c2cc(F)ccc2N1C(=O)c1ccc(C#N)cc1,Aedes albopictus,,,"1 µM, 72 h, second-instar larvae",reference: Abbott-corrected control,mortality,74 ± 4%
CON(C(=O)c1cn(C)nc1C(F)F)C(C)Cc1c(Cl)cc(Cl)cc1Cl (centres unmarked),Phytophthora capsici,mycelial growth,,1.56 µg/mL,,inhibition,76.7%
O=C(Nc1ccccc1Nc1ccccc1)c1cccnc1Cl,Sclerotinia sclerotiorum,microbial growth,,50 µg/mL,,inhibition,0%
O=[N+]([O-])c1ccc([Se][C@@H]2O[C@H](CO)[C@@H](O)[C@H](O)[C@H]2O)c([N+](=O)[O-])c1,Trypanosoma brucei brucei,,bloodstream form,"5 µM, 24 h, 1 % DMSO",,viability,69.4 ± 5.1%
C[C@@H]1C[C@H](Nc2ccccc2)c2cc(F)ccc2N1C(=O)c1ccc(C#N)c(Cl)c1,Aedes albopictus,,,"1 µM, 72 h, second-instar larvae",reference: Abbott-corrected control,mortality,70 ± 15%
S=C(NCc1ccccn1)NCc1ccccn1,Proteus vulgaris,"microbial growth, well diffusion",,30 µg/mL,,inhibition zone,26 mm
Nc1ncnc2c1c(Cl)cn2[C@@H]1O[C@H](CO)[C@@H](O)[C@H]1O,Trypanosoma congolense,"parasite growth, resazurin",,72 h,,EC50,860 nM
CC[C@H](C)[C@H](NC(=O)[C@H](CCCCN)NC(=O)[C@H](CCCCN)NC(=O)[C@H](CC(C)C)NC(=O)[C@H](CCCCN)NC(=O)[C@H](CCC(=O)O)NC(=O)[C@H](CCCCN)NC(=O)[C@@H](NC(=O)[C@H](CCCCN)NC(=O)[C@H](CC(N)=O)NC(=O)[C@H](CCCNC(=N)N)NC(=O)[C@H](Cc1ccccc1)NC(=O)[C@H](CCCCN)NC(=O)[C@H](CCCNC(=N)N)NC(=O)[C@H](CC(C)C)NC(=O)[C@H](CCCNC(=N)N)NC(=O)[C@H](CCCCN)NC(=O)[C@H](CCCNC(=N)N)NC(=O)[C@H](CC(C)C)NC(=O)CN)[C@@H](C)CC)C(=O)NCC(=O)N[C@@H](CCC(N)=O)C(=O)N[C@@H](CCCCN)C(=O)N[C@H](C(=O)N[C@@H](CCC(N)=O)C(=O)NCC(=O)N[C@@H](Cc1ccccc1)C(=O)N[C@H](C(=O)N1CCC[C@H]1C(=O)N[C@@H](CCCCN)C(=O)N[C@@H](CC(C)C)C(=O)N[C@@H](C)C(=O)N1CCC[C@H]1C(=O)N[C@@H](CCCNC(=N)N)C(=O)N[C@H](C(=O)N[C@@H](CC(=O)O)C(=O)N[C@@H](Cc1ccc(O)cc1)C(=O)O)[C@@H](C)O)C(C)C)[C@@H](C)CC,Streptomyces scabiei,inhibition zone,CGMCC 4.176,"LB agar, overnight",,lethal concentration,1.84 µM
CS(=O)(=O)c1ccc(/C=N/NC(=O)Cn2ccc(=O)c3ccccc32)cc1,Phytophthora capsici,microbial growth,,50 µg/mL,,inhibition,31%
COc1ccccc1-c1n[nH]c2nc(N[C@H]3CC[C@H](NS(=O)(=O)CC(C)C)CC3)ncc12,Leishmania donovani,,"LdBOB CRK12 G572D + CYC9 overexpressing, promastigotes",,,EC50,4.6 ± 0.05 nM
O=C(Cc1csc2nc(-c3ccc(Br)cc3)cn12)NN=C1CCCC1,Feline herpesvirus,"viral cytopathicity, microscopy",CRFK,,,EC50,> 100 µg/mL
CC[C@@H](C)[C@@H](NC(=O)[C@@H](C)NC(=O)[C@@H](CCCCN)NC(=O)[C@@H](CC(C)C)NC(=O)[C@@H](C)NC(=O)[C@H](NC(=O)[C@@H](Cc1c[nH]cn1)NC(=O)[C@@H](CC(C)C)NC(=O)[C@H](NC(=O)[C@H](NC(=O)[C@@H](CCCCN)NC(=O)[C@@H](CCCCN)NC(=O)[C@@H](C)NC(=O)[C@@H](CO)NC(=O)[C@@H](CCCCN)NC(=O)[C@@H](Cc1ccccc1)NC(=O)[C@H](NC(=O)[C@@H](CCCCN)NC(=O)[C@@H](CC(C)C)NC(=O)[C@@H](Cc1ccccc1)NC(=O)[C@@H](CO)NC(=O)[C@@H](CCCCN)NC(=O)[C@@H](Cc1c[nH]c2ccccc12)NC(=O)[C@@H](CCCCN)NC(C)=O)[C@H](C)O)[C@H](C)O)C(C)C)[C@H](C)O)C(=O)N[C@H](CO)C(=O)N[C@H](CO)C(N)=O,Scedosporium prolificans,,clinical isolate,"48 h, 30 °C",,MIC50,50 µg/mL
OC[C@H]1O[C@@H](SSCc2ccc(CSS[C@@H]3O[C@H](CO)[C@H](O)[C@H](O)[C@H]3O)c3ccccc23)[C@H](O)[C@@H](O)[C@H]1O,Trypanosoma brucei,"parasite growth, flow cytometry",,"5 µM, 24 h",,viability,88.4%
C[C@@H]1C[C@H](Nc2ccccc2)c2cc(F)ccc2N1C(=O)c1ccc(Cl)cc1,Aedes albopictus,,,"1 µM, 72 h, second-instar larvae",reference: Abbott-corrected control,mortality,68 ± 11%
CC[C@H](C)[C@H](NC(=O)[C@H](CCCNC(=N)N)NC(=O)[C@@H]1CCCN1C(=O)[C@@H](NC(=O)[C@H](CO)NC(=O)[C@H](CCCCN)NC(=O)[C@H](CO)NC(=O)[C@H](CC(C)C)NC(=O)[C@H](CCCCN)NC(=O)[C@H](CC(C)C)NC(=O)[C@H](Cc1ccccc1)NC(=O)[C@H](Cc1ccccc1)NC(=O)CNC(=O)[C@@H]1CCCN1C(=O)[C@@H](NC(=O)[C@H](CCC(=O)O)NC(=O)[C@@H](N)CC(=O)O)[C@@H](C)O)C(C)C)C(N)=O,Aedes aegypti,agonist,pharate pupae,"injection, 10 fmol, 9-12 h before ecdysis",,ecdysis contraction duration,~10 min
CCCCCCCCCC(=O)OCC1OC(n2cc(C)c(=O)[nH]c2=O)CC1N(C)C (centres unmarked),herpes simplex virus 2,viral replication,"HEL, G",,,EC50,> 230 nM
C[C@@H]1C[C@H](Nc2ccccc2)c2cc(F)ccc2N1C(=O)c1ccc(C(F)(F)F)cc1,Aedes albopictus,,,"1 µM, 72 h, second-instar larvae",reference: Abbott-corrected control,mortality,33 ± 20%
C[C@@](O)(C(F)F)[C@H](NC(=O)c1ccc(C#CC#CC2CC2)cc1)C(=O)NO,Enterobacteriaceae,,"ESBL, carbapenemase negative",,,MIC50,0.064 µg/mL
CCCCc1ccc(-c2nc(C)c(C(C)=NNC(=N)N)s2)cc1,Staphylococcus aureus,,ATCC 43300 MRSA,,,MBC,1.3 µg/mL
CCC(C)C(=O)OC1C(C)C(OC)C=COC2(C)Oc3c(C)c(O)c4c(c3C2=O)C2=NC3(CCN(CC(C)C)CC3)NC2=C(NC(=O)C(C)=CC=CC(C)C(O)C(C)C(O)C1C)C4=O (mixture of isomers),Mycobacteroides abscessus,,ATCC 19977,,reference: wild type over arr deletion,MIC ratio,39.3

# A few entries again:
SMILES,organism,assay,test system,setting,how to read,quantity,result
Nc1ccn(C[C@@H](CO)OCP(=O)(O)OCCCS(=O)(=O)CCCCCCCCCCCCC2CCC2)c(=O)n1,human betaherpesvirus 5,cytopathic effect,AD169,,reference: CC50 over EC50,selectivity index,> 19
Cc1cn(C2CC(N(C)C)C(CO)O2)c(=O)[nH]c1=O (centres unmarked),HIV-2,"viral cytopathic effect, MTT","MT-4, ROD",,,EC50,> 460 nM
C[C@@H]1C[C@H](Nc2ccccc2)c2cc(F)ccc2N1C(=O)c1ccc(C(F)(F)F)cc1,Aedes albopictus,,,"1 µM, 72 h, second-instar larvae",reference: Abbott-corrected control,mortality,33 ± 20%
